Results from different studies.
Each line is one published result; not all experiments were run side by side.
Cell line: ACHN

Cc1cc(C)n(-c2nc(-c3ccc(Cl)cc3)c3c(NC(=O)c4ccccc4)nnc-3[nH]2)n1  cell growth (SRB; 10 µM, NCI60 single-dose screen; baseline: untreated): 99.4%
CCn1cc(-c2cc(Cn3ccnc3)cc3c2CCN([C@H](c2cc(OC)ccn2)C2CC2)C3=O)c(C(F)(F)F)n1  EC50 (cell growth, inhibitor; 120 h): 15.7 µM
O=c1ccn(Cc2cn(-c3c4ccccc4nc4ccccc34)nn2)c(=O)[nH]1  growth percentage (NCI60 single-dose screen; 10 µM): 95.4%
COc1ccc(OC)c(-c2nc3ccc(-c4nc5ccc(N6CCN(C)CC6)cc5[nH]4)cc3[nH]2)c1  growth percent (SRB; 10 µM, 48 h): 100%
O=C1NC(c2ccccc2)(c2ccccc2)C(=O)N1Cc1cn(-c2cc3ccccc3oc2=O)nn1  growth percentage (NCI60 single-dose screen; 10 µM): 92.7%
CCOc1ccc(-c2nc3cc(-c4nc5cc(N6CCN(C)CC6)ccc5[nH]4)ccc3[nH]2)cc1OCC  growth percent (SRB; 10 µM, 48 h): 81.9%
S=C([S][Au-][P+](CCCCCC[P+]([Au-][S]C(=S)n1cccn1)(c1ccccc1)c1ccccc1)(c1ccccc1)c1ccccc1)n1cccn1  log10 TGI (cell growth, NCI-60 screen; renal cancer): > -4
CCN(CC)c1ccc(C=NNC(=O)CSc2nc3ccccc3c(=O)n2Cc2ccc(S(N)(=O)=O)cc2)c(O)c1  TGI (NCI five-dose screen): > 100 µM
Cc1cc(=O)[nH]c(=O)n1Cc1cn(-c2cc3ccccc3oc2=O)nn1  growth percentage (NCI60 single-dose screen; 10 µM): 98.9%
CCCCN1CCN(c2ccc3[nH]c(-c4ccc5[nH]c(-c6cc(OC)c(OC)c(OC)c6)nc5c4)nc3c2)CC1  growth percent (SRB; 10 µM, 48 h): 86.8%
Cn1cncc1C1=CN(c2ncnc3[nH]cnc23)CCS1  TGI (renal cancer): 170 µM
CCCCN1CCN(c2ccc3[nH]c(-c4ccc5[nH]c(-c6ccc(OCC)cc6)nc5c4)nc3c2)CC1  growth percent (SRB; 10 µM, 48 h): 63.9%
COC(=O)/C=C1\C(=O)C=C2C3CC4CC(CCC4(C)N21)C3(C)NC(C)=O (stereo not shown)  IC50 (cell growth; NCI screen): 20.2 µM
C#C[C@@]1(O)[C@@H](CO)O[C@@H](n2cc(F)c3c(N)ncnc32)[C@@H]1O  TGI (SRB; NCI-60 screen): > 100 µM
O=C(Nc1nnc2n3c(Cc4ccccc4)n[nH]c3nc(-c3ccc(Cl)cc3)c1-2)c1ccccc1  cell growth (SRB; 10 µM, NCI60 single-dose screen; baseline: untreated): 104%
O=C1NCCc2[nH]c(-c3ccncc3)cc21  IC50 (MTS; NCI60 panel): > 10 µM
NNc1nc(-c2ccc(Cl)cc2)c2c(NC(=O)c3ccccc3)nnc-2[nH]1  cell growth (SRB; 10 µM, NCI60 single-dose screen; baseline: untreated): 108%
O=c1ccn(Cc2cn(-c3cc4ccccc4oc3=O)nn2)c(=O)[nH]1  growth percentage (NCI60 single-dose screen; 10 µM): 99.8%
CCCN1CCN(c2ccc3nc(-c4ccc5nc(-c6cc(OC)ccc6OC)[nH]c5c4)[nH]c3c2)CC1  growth percent (SRB; 10 µM, 48 h): 106%
O=C(Nc1nnc2n3c(=S)[nH][nH]c3nc(-c3ccc(Cl)cc3)c1-2)c1ccccc1  cell growth (SRB; 10 µM, NCI60 single-dose screen; baseline: untreated): 78.8%
CCCCN1CCN(c2ccc3[nH]c(-c4ccc5[nH]c(-c6ccc(OCC)c(OCC)c6)nc5c4)nc3c2)CC1  growth percent (SRB; 10 µM, 48 h): 12.7%
CCOC(=O)CSc1nc(-c2ccc(Cl)cc2)c2c(NC(=O)c3ccccc3)nnc-2[nH]1  cell growth (SRB; 10 µM, NCI60 single-dose screen; baseline: untreated): 101%

Excerpt of the above:
CCCCN1CCN(c2ccc3[nH]c(-c4ccc5[nH]c(-c6ccc(OCC)c(OCC)c6)nc5c4)nc3c2)CC1  growth percent (SRB; 10 µM, 48 h): 12.7%
CCN(CC)c1ccc(C=NNC(=O)CSc2nc3ccccc3c(=O)n2Cc2ccc(S(N)(=O)=O)cc2)c(O)c1  TGI (NCI five-dose screen): > 100 µM
